Measurements collected from several papers.
± gives the spread as reported.

CCCCOC(=O)Nc1cc2nc(C3CCCCC3)[nH]c2cc1N(CCC)CCC gave an IC50 of > 100 µg/mL (Vero; cytotoxicity, Alamar Blue; 3 days, 37 °C).
For CC(C)[C@H](NC(=O)[C@@H]1CCCN1C(=O)[C@H](CCCNC(=N)N)NC(=O)[C@H](CS)NC(=O)[C@H](Cc1c[nH]c2ccccc12)NC(=O)[C@H](CCCNC(=N)N)NC(=O)[C@@H](Cc1ccccc1)NC(=O)[C@H](Cc1c[nH]cn1)NC(=O)[C@H](CCC(=O)O)NC(=O)[C@H](CS)NC(=O)[C@H](CS)NC(=O)[C@H](CCCNC(=N)N)NC(=O)[C@@H]1CC(=O)N[C@@H](CCCNC(=N)N)C(=O)N[C@@H](C)C(=O)N[C@@H](CC(=O)O)C(=O)N[C@H](Cc2ccc(O)cc2)C(=O)N1)C(N)=O [technetium-99m labelled], the tissue uptake was 1.38 ± 0.41 %ID (C57 mouse, intestine; intravenous, 0.037 MBq, 2 h).
CC(C)=CCc1c(-c2ccccc2)n(CC=C(C)C)c2ccccc12 gave an inhibition of 60.9 ± 1.1% (HEK293 NF-κB luciferase reporter; reporter gene, measured: NF-κB; 50 µM, 6 h, added: TNFα).
The inhibition of COc1ccc(/C=C2/S/C(=N/N=C(\C)c3ccccn3)NC2=O)cc1OC is reported as 55.8% (Vero; cell growth or viability, SRB; 100 µg/mL, 48 h).
For COc1cccc2c1C(=O)c1c(O)c3c(c(O)c1C2=O)C[C@@](O)(C(=O)CO)C[C@@H]3O[C@H]1C[C@H](NC(=O)[C@@H]2CCCN2C(=O)CN)[C@H](O)[C@H](C)O1, the terminal half-life was 14.8 h (mouse, E0771 tumour-bearing, liver; intravenous, 92 µmol/kg PhAc-ALGP-Dox).
With CCCC[C@H](NC(C)=O)C(=O)N[C@H]1CCC(=O)NC[C@@H](C(=O)N[C@@H](Cc2c[nH]c3ccccc23)C(N)=O)NC(=O)[C@H](CCCNC(=N)N)NC(=O)[C@@H](Cc2ccccc2)NC(=O)[C@H](Cc2c[nH]cn2)NC1=O the AUC(0-inf) was 952 ng·h/mL (male rat, plasma; subcutaneous, 1 mg/kg/day, multiple doses, once daily).
The inhibition of `LRRFSTMPFMFININNVINF` is reported as 92.9 ± 1.78% (HUVEC; cell migration, real-time cell analysis; peptide; 50 µM, added: full medium chemoattractant; relative to: vehicle).
The inhibition of CCN1C(=O)C(C)S/C1=N/N=C(\C)c1ccccn1 (stereo not shown) is reported as 60.6% (Vero; cell growth or viability, SRB; 100 µg/mL, 48 h).
N#Cc1c(-c2ccccc2)[nH]c2ccccc12 gave an inhibition of 70.2 ± 3.8% (HEK293 NF-κB luciferase reporter; reporter gene, measured: NF-κB; 50 µM, 6 h, added: TNFα).
[O-][n+]1nc(NCCCNc2n[n+]([O-])c3ccccc3[n+]2[O-])nc2ccccc21 has an inhibition of 80 to 90% (HUVEC and fibroblast co-culture; tube formation; 20 µM, 11 d).
CCN1C(=O)/C(=C\c2ccc(F)cc2)S/C1=N/N=C(\C)c1ccccn1 gave an inhibition of 64.8% (Vero; cell growth or viability, SRB; 100 µg/mL, 48 h).
The inhibition of O=[N+]([O-])c1ccc2[nH]c(-c3ccccc3)cc2c1 is reported as 92.8 ± 4% (HEK293 NF-κB luciferase reporter; reporter gene, measured: NF-κB; 50 µM, 6 h, added: TNFα).
CCN1C(=O)/C(=C\c2ccc(OC)cc2)S/C1=N/N=C(\C)c1ccccn1 gave an inhibition of 57% (Vero; cell growth or viability, SRB; 100 µg/mL, 48 h).
COc1ccc(-c2cc3ccccc3[nH]2)cc1 has an inhibition of 81.3 ± 1.9% (HEK293 NF-κB luciferase reporter; reporter gene, measured: NF-κB; 50 µM, 6 h, added: TNFα).
The inhibition of C/C(=N\N=c1/[nH]c(C)c(/N=N/c2ccc(C)cc2)s1)c1ccccn1 is reported as < 45% (Vero; cell proliferation, SRB; 100 µg/mL, 48 h).
The inhibition of `LRRFSTMPFMFSNINNVSNF` is reported as 50.5 ± 0.66% (HUVEC; cell proliferation, WST-1; peptide; 100 µM, 72 h; relative to: vehicle).
For FC(F)(F)Oc1ccc(-c2cc3ccccc3[nH]2)cc1, the inhibition was 79.7 ± 8.8% (HEK293 NF-κB luciferase reporter; reporter gene, measured: NF-κB; 50 µM, 6 h, added: TNFα).
For `LRRFSTMPFMFANINNVANF`, the inhibition was 98.19 ± 0.03% (HUVEC; cell adhesion, real-time cell analysis; peptide; 100 µM, 3 h; relative to: vehicle).
The inhibition of Nc1cccc(-c2cc3ccccc3[nH]2)c1 is reported as 72 ± 1.9% (HEK293 NF-κB luciferase reporter; reporter gene, measured: NF-κB; 50 µM, 6 h, added: TNFα).
COc1ccc(/C=C2/S/C(=N/N=C(\C)c3ccccn3)NC2=O)cc1 gave an inhibition of 61.2% (Vero; cell growth or viability, SRB; 100 µg/mL, 48 h).
For CC(C)[C@H](NC(=O)[C@@H]1CCCN1C(=O)[C@H](CCCNC(=N)N)NC(=O)[C@H](CS)NC(=O)[C@H](Cc1c[nH]c2ccccc12)NC(=O)[C@H](CCCNC(=N)N)NC(=O)[C@@H](Cc1ccccc1)NC(=O)[C@H](Cc1c[nH]cn1)NC(=O)[C@H](CCC(=O)O)NC(=O)[C@H](CS)NC(=O)[C@H](CS)NC(=O)[C@H](CCCCN)NC(=O)[C@@H]1CC(=O)N[C@@H](CCCNC(=N)N)C(=O)N[C@@H](C)C(=O)N[C@@H](CC(=O)O)C(=O)N[C@H](Cc2ccc(O)cc2)C(=O)N1)C(N)=O [technetium-99m labelled], the tissue uptake was 1.75 ± 0.29 %ID/g (C57 mice, bone; intravenous, 0.037 MBq, 0.5 h).
The Tmax of C#C[C@]1(COP(=O)(O)OP(=O)(O)OP(=O)(O)O)O[C@@H](n2cnc3c(N)nc(F)nc32)C[C@@H]1O is reported as 6 h (human PBMC tumour model; host not given, plasma; oral, 15 mg, single dose, fasted).
For CCN1C(=O)/C(=C\c2ccc(OC)c(OC)c2)S/C1=N/N=C(\C)c1ccccn1, the inhibition was 52.7% (Vero; cell growth or viability, SRB; 100 µg/mL, 48 h).
For `TAGSCLRKFSTM`, the inhibition was ~25% (bovine aortic endothelial cells; cell adhesion; peptide, type IV collagen-coated plate; 4 µg/mL, 15 min then 60 min, room temperature then 37 °C).
CC(C)(C)c1cc(C(C)(C)C)c(NC(=O)c2c[nH]c3ccccc3c2=O)cc1O: “amount remaining in donor” 57 to 71% (Calu-3; 4 h, basal to apical transport).
The inhibition of `LRRFSTMPFMFVNINNVVNF` is reported as 95.12 ± 0.62% (HUVEC; cell adhesion, real-time cell analysis; peptide; 100 µM, 3 h; relative to: vehicle).
The inhibition of COc1cccc(-c2cc3ccccc3[nH]2)c1 is reported as 85.5 ± 3% (HEK293 NF-κB luciferase reporter; reporter gene, measured: NF-κB; 50 µM, 6 h, added: TNFα).
[O-][S+](c1ccccc1)c1ccc2nnnn2n1 (stereo not shown) gave an EC50 of < 0.001 µM (HEK293 NF-κB luciferase reporter; NF-κB reporter gene, antagonist; 24 h, added: TNFα 5 ng/mL).
`LRRFSTMPFMFCNINNVCNF` has an inhibition of 96.25 ± 0.34% (HUVEC; cell adhesion, real-time cell analysis; peptide; 100 µM, 3 h; relative to: vehicle).
The therapeutic window of c1cncc(CN2CCC(n3ncc4c(N5CCOCC5)nc(-c5ccc6[nH]ccc6c5)nc43)CC2)c1 is reported as 1.24 (NIH3T3 in PANC/NIH microtissues; fibroblast toxicity; chronic toxicity, unit not given; relative to: AC50 ATP over AC50 NanoLUC, day 7).
With CCc1ccc(C(=O)Nc2cc3nc(C4CCCCC4)[nH]c3cc2N(C)C)cc1 the IC50 was > 100 µg/mL (Vero; cytotoxicity, Alamar Blue; 3 days, 37 °C).
C/C(=N\N=C1/NC(=O)/C(=C\c2ccc(F)cc2)S1)c1ccccn1 gave an inhibition of 57.6% (Vero; cell growth or viability, SRB; 100 µg/mL, 48 h).
For NCCCCCCCCNc1n[n+]([O-])c2ccccc2[n+]1[O-], the inhibition was 80 to 90% (HUVEC and fibroblast co-culture; tube formation; 20 µM, 11 d).
With CCC(C(=O)O)n1c(=NC(=O)c2cccc(C(F)(F)F)c2)sc2cc(F)c(F)cc21 (stereo not shown) the inhibition was 80% (NCI-H226; cell invasion; chick chorioallantoic membrane; 50 µM, 48 h; relative to: control).
CN(C)c1ccc(-c2cc3ccccc3[nH]2)cc1 has an inhibition of 95.9 ± 0.2% (HEK293 NF-κB luciferase reporter; reporter gene, measured: NF-κB; 50 µM, 6 h, added: TNFα).
For COc1cc(O)cc(O)c1C(=O)/C=C/c1ccccc1, the EC50 was 3.29 µM (HEK293 NF-κB luciferase reporter; NF-κB reporter gene, antagonist; 24 h, added: TNFα 5 ng/mL).
The inhibition of `LRRFSTMPFAFININNVINF` is reported as 69.33 ± 0.14% (HUVEC; cell migration, real-time cell analysis; peptide; 50 µM, added: full medium chemoattractant; relative to: vehicle).

A few entries again:
With CCCC[C@H](NC(C)=O)C(=O)N[C@H]1CCC(=O)NC[C@@H](C(=O)N[C@@H](Cc2c[nH]c3ccccc23)C(N)=O)NC(=O)[C@H](CCCNC(=N)N)NC(=O)[C@@H](Cc2ccccc2)NC(=O)[C@H](Cc2c[nH]cn2)NC1=O the AUC(0-inf) was 952 ng·h/mL (male rat, plasma; subcutaneous, 1 mg/kg/day, multiple doses, once daily).
For FC(F)(F)Oc1ccc(-c2cc3ccccc3[nH]2)cc1, the inhibition was 79.7 ± 8.8% (HEK293 NF-κB luciferase reporter; reporter gene, measured: NF-κB; 50 µM, 6 h, added: TNFα).
The inhibition of O=[N+]([O-])c1ccc2[nH]c(-c3ccccc3)cc2c1 is reported as 92.8 ± 4% (HEK293 NF-κB luciferase reporter; reporter gene, measured: NF-κB; 50 µM, 6 h, added: TNFα).
The therapeutic window of c1cncc(CN2CCC(n3ncc4c(N5CCOCC5)nc(-c5ccc6[nH]ccc6c5)nc43)CC2)c1 is reported as 1.24 (NIH3T3 in PANC/NIH microtissues; fibroblast toxicity; chronic toxicity, unit not given; relative to: AC50 ATP over AC50 NanoLUC, day 7).
